Values quoted from earlier work, collected from citations in different studies.
Numbered parts are unrelated; values within a part may stem from several laboratories. ± marks the error that the study gave.
Sequence of UniProt P51589 (whole entry, looked up): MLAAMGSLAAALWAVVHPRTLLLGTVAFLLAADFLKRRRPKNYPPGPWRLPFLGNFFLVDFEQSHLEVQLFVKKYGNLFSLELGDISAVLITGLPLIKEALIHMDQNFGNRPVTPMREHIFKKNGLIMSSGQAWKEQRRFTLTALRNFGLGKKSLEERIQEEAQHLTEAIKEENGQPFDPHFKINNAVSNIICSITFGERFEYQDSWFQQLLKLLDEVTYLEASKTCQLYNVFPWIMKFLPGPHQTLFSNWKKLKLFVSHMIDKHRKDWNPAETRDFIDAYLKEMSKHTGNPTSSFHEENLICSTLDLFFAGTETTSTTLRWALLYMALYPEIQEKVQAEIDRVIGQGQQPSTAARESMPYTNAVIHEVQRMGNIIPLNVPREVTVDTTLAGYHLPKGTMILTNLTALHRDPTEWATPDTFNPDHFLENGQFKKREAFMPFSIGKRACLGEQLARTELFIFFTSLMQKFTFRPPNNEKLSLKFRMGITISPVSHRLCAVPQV

Study 1
Target: dopamine transporter
Endpoint: IC50
Cc1c(O)cccc1C(=O)N[C@@H](CSc1ccccc1)[C@H](O)CN1C[C@H]2CCCC[C@H]2C[C@H]1C(=O)NC(C)(C)C: 12.3 µM
Oc1ncnc2[nH]ncc12: > 10 µM
CN(C)CC(c1ccc(O)cc1)C1(O)CCCCC1 (stereo not drawn): 0.854 µM

Study 2
Organism: Cryptosporidium parvum
Technique: high-throughput screen
Tested at: concentration not given
Endpoint: activity
COc1cc(C)nc(-n2nc(C)cc2OC)n1: inactive
CC(=O)NC[C@H]1CN(c2ccc(N3CCOCC3)c(F)c2)C(=O)O1: inactive
CCOC(=O)C1=C(C)NC(C)=C(C(=O)OCC)C1c1ccccc1/C=C/C(=O)OC(C)(C)C: inactive
CCC(=O)O[C@]1(C(=O)CCl)[C@@H](C)C[C@H]2[C@@H]3CCC4=CC(=O)C=C[C@]4(C)[C@@]3(F)[C@@H](O)C[C@@]21C: inactive
Nc1nc(O)c2ncn(COC(CO)CO)c2n1: inactive
CC(C)n1c(/C=C/C(O)CC(O)CC(=O)O)c(-c2ccc(F)cc2)c2ccccc21 (stereo not drawn): inactive
N[C@H](Cc1cc(I)c(Oc2ccc(O)c(I)c2)c(I)c1)C(=O)O: inactive
NC(=O)N1c2ccccc2C=Cc2ccccc21: inactive
CC(=O)OCC[N+](C)(C)C: inactive
Cc1ncc([N+](=O)[O-])n1CC(O)CCl (stereo not drawn): inactive
C[C@H]1O[C@H](O[C@H]2[C@H](O)[C@@H](O)[C@@H](O[C@H]3[C@H](O)[C@@H](O)C(O)O[C@@H]3CO)O[C@@H]2CO)[C@H](O)[C@@H](O)[C@@H]1N[C@H]1C=C(CO)[C@@H](O)[C@H](O)[C@H]1O (stereo partly drawn): inactive
CN1C2CCCC1CC(NC(=O)c1nn(C)c3ccccc13)C2 (stereo not drawn): inactive
CC(C)[C@H](N)C(=O)OCCOCn1cnc2c(=O)[nH]c(N)nc21: inactive
CO[C@H]1/C=C/O[C@@]2(C)Oc3c(C)c(O)c4c(O)c(c5c(nc6cc(C)ccn65)c4c3C2=O)NC(=O)/C(C)=C\C=C\[C@H](C)[C@H](O)[C@@H](C)[C@@H](O)[C@@H](C)[C@H](OC(C)=O)[C@@H]1C: inactive
CCC(=O)OCC(=O)[C@@]1(OC(=O)CC)[C@@H](C)C[C@H]2[C@@H]3CCC4=CC(=O)C=C[C@]4(C)[C@@]3(Cl)[C@@H](O)C[C@@]21C: inactive
Nc1ccc(O)c(C(=O)O)c1: inactive
C[C@H]1COc2c(C3(N)CC3)c(F)cc3c(=O)c(C(=O)O)cn1c23: inactive
OCCN1CCN(CCCN2c3ccccc3Sc3ccc(Cl)cc32)CC1: inactive
CCn1cc(C(=O)O)c(=O)c2cc(F)c(N3CCN(C)CC3)cc21: inactive
CC1COc2c(N3CCN(C)CC3)c(F)cc3c(=O)c(C(=O)O)cn1c23 (stereo not drawn): inactive
C[C@](N)(Cc1ccc(O)c(O)c1)C(=O)O: inactive
CC(=O)OCC(CCn1cnc2cnc(N)nc21)COC(C)=O: inactive
CCc1nc(N)nc(N)c1-c1ccc(Cl)cc1: inactive
COc1cc(C)c(Cc2cnc(N)nc2N)cc1OC: inactive
CC(C)c1ccc2oc3nc(N)c(C(=O)O)cc3c(=O)c2c1: inactive

Mixed results
COc1ccc2nc([S@@+]([O-])Cc3ncc(C)c(OC)c3C)[nH]c2c1 — Cmax (Japanese non-obese humans; intravenous bolus, 20 mg racemic omeprazole): 964 ng/mL
Nc1ncnc2c1ncn2[C@@H]1O[C@H](COP(=O)(O)OP(=O)(O)O)[C@@H](O)[C@H]1O — Km (F-type ATP synthase; substrate): 10 to 100 µM
Cc1c(C#N)cccc1[C@@H](C)Nc1nnc(C)c2cnc(N3CCOCC3)cc12 — IC50 (HT115; ERK phosphorylation, In-Cell Western, measured: phospho-ERK): 0.01 ± 0.0028 µM
O=C(O)CCCOc1ccc(F)cc1-c1cc(-c2ccccc2C(F)(F)F)n(-c2ccccc2)n1 — Kd (FABP4; binding, ANS displacement): 0.238 ± 0.046 µM
COC(=O)N[C@H](C(=O)N1CCC[C@H]1c1nc(-c2ccc3c(c2)O[C@@H](c2ccccc2)n2c-3cc3cc(-c4c[nH]c([C@@H]5CCCN5C(=O)[C@@H](NC(=O)OC)C(C)C)n4)ccc32)c[nH]1)C(C)C — IC50 (CYP1A2; inhibitor; human liver microsomes): > 100 µM
CC(=O)Oc1ccccc1C(=O)O — free Cmax (plasma; literature data): 2.4 µM
NC(=O)[C@@H]1CC[C@@H]2CN1C(=O)N2OS(=O)(=O)O — Cmax (healthy volunteers, epithelial lining fluid; dose not given, geometric mean): 5100 ng/mL
CO[C@H]1CC[C@H](CNc2ccc(S(=O)(=O)NC(=O)c3ccc(N4CCN(CC5=C(c6ccc(Cl)cc6)CC(C)(C)CC5)CC4)cc3Oc3cnc4[nH]ccc4c3)cc2[N+](=O)[O-])CC1 — EC50 (BCL2; cell-based): 0.006 µM
O=C(Oc1cccc(F)c1OC(=O)c1cccc(O)c1)c1cccc(O)c1 — IC50 (H1299; cytotoxicity, MTT): 20.4 µM
Cc1ccc(Nc2nccc(N(C)c3ccc4c(C)n(C)nc4c3)n2)cc1S(N)(=O)=O — median overall survival (paediatric sarcoma patients; dose not given): 6.2 months
C[C@H]1O[C@@H](O[C@H]2[C@@H](O)C[C@H](O[C@H]3[C@@H](O)C[C@H](O[C@H]4CC[C@@]5(C)[C@H](CC[C@@H]6[C@@H]5C[C@@H](O)[C@]5(C)[C@@H](C7=CC(=O)OC7)CC[C@]65O)C4)O[C@@H]3C)O[C@@H]2C)C[C@H](O)[C@@H]1O — Cmax ratio (human; together with: diltiazem; reference: with over without diltiazem): 1.38
N=C(N)c1ccc(Nc2ccc(-c3cc4ccc(C(=N)N)cc4[nH]3)cc2)cc1 — inhibition (PRMT8; enzyme activity, inhibitor; concentration not given): inhibited
CC(=O)Nc1ccc(O)cc1 — free Cmax (plasma; literature data): 99.9 µM
COc1cc2c(Oc3ccc4[nH]c(C)cc4c3F)ccnc2cc1OCC1(N)CC1 — Cmax (human; 16 mg single dose): 15.8 ± 3.2 ng/mL
C=C[C@@H]1C[C@]1(NC(=O)[C@@H]1C[C@@H]2CN1C(=O)[C@H](C(C)(C)C)NC(=O)O[C@@H]1C[C@H]1CCCCCc1nc3ccc(OC)cc3nc1O2)C(=O)NS(=O)(=O)C1CC1 — IC50 (CYP2C9; inhibitor; human liver microsomes): > 100 µM
Cn1cnc2c(F)c(Nc3ccc(Br)cc3Cl)c(C(=O)NOCCO)cc21 — Cmax (human; 75 mg, given alone): 1440 ng/mL
COc1cccc2c1C(=O)c1c(O)c3c(c(O)c1C2=O)C[C@@](O)(C(=O)CO)C[C@@H]3O[C@H]1C[C@H](N)[C@H](O)[C@H](C)O1 — Kd (Cytochrome P450 2J2 (CYP2J2, Homo sapiens, UniProt P51589)): 5.33 µM
CCOc1cc2ncc(C#N)c(Nc3ccc(OCc4ccccn4)c(Cl)c3)c2cc1NC(=O)/C=C/CN(C)C — half-life (in vitro, together with: glutathione): ~30 min
O=C(CCc1ccc(O)cc1)c1c(O)cc(O)cc1O — IC50 (H1299; cytotoxicity, MTT): 54 µM
CCOC(=O)C1=C(COCCN)NC(C)=C(C(=O)OC)C1c1ccccc1Cl (stereo not drawn) — AUC(0-inf) (measured: tacrolimus; human CYP3A5 non-expressors; dose not given, together with: tacrolimus): no effect
O=C(Nc1ccc(-n2nc(-c3cccnc3)cc2C(F)(F)F)cn1)c1ccc(-c2ccccc2)c(F)c1 — IC50 (EPHX2; biochemical activity): > 3 µM
CCOCC1(COCC)CCC(c2n[nH]cc2CN(C)CCNC)CC1 — IC50 (PRMT6): 0.0047 µM
C=CC[C@@H]1/C=C(\C)C[C@H](C)C[C@H](OC)[C@H]2O[C@@](O)(C(=O)C(=O)N3CCCC[C@H]3C(=O)O[C@H](/C(C)=C/[C@@H]3CC[C@@H](O)[C@H](OC)C3)[C@H](C)[C@@H](O)CC1=O)[C@H](C)C[C@@H]2OC — intrinsic clearance (human CYP3A4 recombinant; substrate): 38.1 µL/min/pmol
